Measurements from different studies.
Each line is one published result; not all experiments were run side by side.
RPS6KA2 N-terminal kinase domain: Ribosomal protein S6 kinase alpha-2, N-terminal kinase domain (RPS6KA2, Homo sapiens, UniProt Q15349)
RPS6KA2 C-terminal kinase domain: Ribosomal protein S6 kinase alpha-2, C-terminal kinase domain (RPS6KA2, Homo sapiens, UniProt Q15349)

C=CC(=O)N1CCCC(n2c(=O)c3ncccc3n(Cc3ccc(Oc4ccccc4)cc3)c2=O)C1 (stereo not drawn)
remaining binding (RPS6KA2 N-terminal kinase domain; binding, competition with immobilised ligand; 1 µM): 86%

C=CC(=O)N1CCc2ccc(-n3c(=O)ccc4cnc5ccc(-c6cnn(C)c6)cc5c43)cc21
remaining binding (RPS6KA2 N-terminal kinase domain; KINOMEscan; 1 µM; relative to: DMSO control): 100%

COc1cc(Nc2nc(C)cc(-c3cnn4nc(OC)ccc34)n2)cc(C(F)(F)F)c1
remaining binding (RPS6KA2 C-terminal kinase domain; binding, competition with immobilised ligand; 1 µM): 90%

Cc1ccc(-c2c(/C=C(\C#N)C(=O)NC(C)C)n(CCCO)c3ncnc(N)c23)cc1
remaining binding (RPS6KA2 N-terminal kinase domain; binding, competition with immobilised ligand; 1 µM): 78%

CNC1C[S+]2CC[S+]3CC[S+](C1)[Ru-4]321([N]=C=S)[n]2c3ccc(OC)cc3c3c4c(c5cc(F)c[n+]1c5c32)C(=O)NC4=O (stereo not drawn)
remaining binding (RPS6KA2 C-terminal kinase domain; KinomeScan; 0.1 µM; relative to: untreated): 69%

CC(C)=CC1OC(C)(C)C2C=C3C(=O)C(Cl)=CC(O)C3C3C(O)C4OC4C(=O)C132 (stereo not drawn)
remaining binding (RPS6KA2 N-terminal kinase domain; cell-free assay, competition with immobilised ligand; 10 µM): 98%

Nc1ncc2c(n1)-c1c([nH]c3ccc(C4=CCOCC4)cc13)CCC2
remaining binding (RPS6KA2 N-terminal kinase domain; binding, competition with immobilised ligand; 1 µM): 100%

CCN1CCN(Cc2ccc(C(=O)Nc3ccc(C)c(NCc4cnc5[nH]ccc5c4OC)c3)cc2C(F)(F)F)CC1
remaining binding (RPS6KA2 C-terminal kinase domain; binding, competition with immobilised ligand; 1 µM): 83%

COc1cc(Nc2nccc(-c3cnn4nc(OC)ccc34)n2)cc(C(F)(F)F)c1
remaining binding (RPS6KA2 N-terminal kinase domain; binding, competition with immobilised ligand; 1 µM): 93%

Cc1cnc2nc1Nc1cccc(c1)COC/C=C/COCc1cc(ccc1OCCN1CCOCC1)N2
remaining binding (RPS6KA2 N-terminal kinase domain; binding, competition with immobilised ligand; 0.1 µM): 100%

COc1c(Cl)cccc1Nc1c(-c2ccncc2C#C[C@@]2(C)CCCN2C(=O)/C=C/CN(C)C)[nH]c2c1C(=O)NCC2
remaining binding (RPS6KA2 N-terminal kinase domain; binding, competition with immobilised ligand; 3 µM): 100%

CNC(=O)C1CCN(c2cc(C)c(F)cc2NC(=O)c2ccc(-c3cc(O)ccc3C)c(C)c2)CC1
remaining binding (RPS6KA2 N-terminal kinase domain; binding, competition with immobilised ligand; 1 µM): 94%

For quick reference, copied from above:
CNC(=O)C1CCN(c2cc(C)c(F)cc2NC(=O)c2ccc(-c3cc(O)ccc3C)c(C)c2)CC1
remaining binding (RPS6KA2 N-terminal kinase domain; binding, competition with immobilised ligand; 1 µM): 94%
